Measured values pooled from the literature.
Protocols differ between the studies behind these lines. Numbers after ± are the reported error.
Organism: Klebsiella pneumoniae

For `CSCC[C@H](NC(=O)[C@H](CCCCN)NC(=O)[C@H](CCCCN)NC(=O)[C@@H](NC(=O)[C@H](CCCCN)NC(=O)[C@H](CC(=O)O)NC(=O)[C@H](Cc1c[nH]c2ccccc12)NC(=O)[C@H](CC(C)C)NC(=O)[C@H](CCC(=O)O)NC(=O)[C@H](CCCCN)NC(=O)[C@@H](NC(=O)[C@@H](N)Cc1ccccc1)C(C)C)C(C)C)C(=O)NCC(=O)N[C@@H](CO)C(=O)N[C@@H](C)C(=O)N[C@@H](C)C(=O)N[C@@H](Cc1c[nH]c2ccccc12)C(=O)N[C@@H](CO)C(=O)N[C@@H](C)C(=O)N[C@@H](C)C(=O)N[C@@H](CCCCN)C(=O)NCC(=O)N[C@@H](C)C(=O)N[C@@H](Cc1ccccc1)C(=O)N[C@@H](C)C(=O)O`, the MIC was > 40 µM (broth microdilution; ATCC 13883; 20 h, 37 °C).
For `CC(C)C[C@H](NC(=O)CN)C(=O)N[C@@H](Cc1ccccc1)C(=O)N[C@@H](CCCCN)C(=O)N[C@@H](CC(C)C)C(=O)N[C@@H](CC(C)C)C(=O)N[C@@H](CCCCN)C(=O)N[C@@H](CCCCN)C(=O)N[C@@H](CC(C)C)C(=O)N[C@@H](CC(C)C)C(=O)N[C@@H](CCCCN)C(=O)N[C@@H](CC(C)C)C(=O)N[C@@H](CC(C)C)C(=O)N[C@@H](CCCCN)C(N)=O`, the MIC was > 20 µM (ATCC 700603, CAMHB; 18 h, 37 °C).
The MIC of `CC[C@H](C)[C@H](NC(=O)[C@H](CC(C)C)NC(=O)CNC(=O)[C@@H]1CCCN1C(=O)[C@H](CC(C)C)NC(=O)[C@H](C)NC(=O)[C@H](CCCCN)NC(=O)CNC(=O)[C@H](CC(C)C)NC(=O)[C@H](CCSC)NC(=O)[C@H](CCCCN)NC(=O)[C@H](C)NC(=O)[C@H](C)NC(=O)[C@H](C)NC(=O)CNC(=O)[C@H](Cc1c[nH]c2ccccc12)NC(=O)[C@@H](N)Cc1ccccc1)C(=O)N[C@@H](CO)C(=O)N[C@@H](CCSC)C(=O)N[C@@H](Cc1ccccc1)C(=O)N[C@@H](CCC(N)=O)C(=O)N[C@@H](CCCCN)C(=O)N[C@@H](CC(N)=O)C(=O)O` is reported as > 40 µM (broth microdilution; ATCC 13883; 20 h, 37 °C).
`C[C@@H](O)[C@H]1C(=O)N2C(C(=O)O)=C(SCCN=CN)C[C@H]12` gave an MIC of 1 µg/mL (VIM-24-producing).
`CC(C)C[C@H](NC(=O)[C@H](C)NC(=O)[C@H](CCCCN)NC(=O)[C@H](CC(C)C)NC(=O)[C@H](CC(C)C)NC(=O)[C@H](CCCCN)NC(=O)[C@H](CCCCN)NC(=O)[C@H](CC(C)C)NC(=O)[C@H](CC(C)C)NC(=O)[C@H](CCCCN)NC(=O)[C@H](CC(C)C)NC(=O)[C@H](CC(C)C)NC(=O)[C@@H](N)CCCCN)C(=O)NCC(N)=O` has an MIC of > 20 µM (ATCC 700603, CAMHB; 18 h, 37 °C).
With `CC[C@H](C)[C@H](NC(=O)[C@H](CCCNC(=N)N)NC(=O)[C@@H](N)CCCNC(=N)N)C(=O)N[C@@H](CCCNC(=N)N)C(=O)N1CCC[C@H]1C(=O)N[C@@H](CCCNC(=N)N)C(=O)N1CCC[C@H]1C(=O)N1CCC[C@H]1C(=O)N[C@@H](CCCNC(=N)N)C(=O)N[C@@H](CC(C)C)C(=O)N1CCC[C@H]1C(=O)N[C@@H](CCCNC(=N)N)C(=O)N1CCC[C@H]1C(=O)O` the MIC was > 77 µM (broth microdilution; NTUH K2044, Mueller Hinton broth; 24 h, 37 °C).
With `CC(C)C[C@H](NC(=O)[C@H](CC(C)C)NC(=O)[C@H](CCCCN)NC(=O)[C@H](CC(C)C)NC(=O)[C@H](CC(C)C)NC(=O)[C@H](CCCCN)NC(=O)[C@H](CCCCN)NC(=O)[C@H](CC(C)C)NC(=O)[C@H](CC(C)C)NC(=O)[C@H](CCCCN)NC(=O)[C@H](CC(C)C)NC(=O)[C@H](CC(C)C)NC(=O)[C@@H](N)CCCCN)C(=O)N[C@@H](CCCCN)C(N)=O` the MIC was > 19 µM (ATCC 700603, CAMHB; 18 h, 37 °C).
For `CC[C@H](C)[C@H](NC(=O)[C@@H]1CCCN1C(=O)[C@H](CCCNC(=N)N)NC(=O)[C@@H]1CCCN1C(=O)CNC(=O)[C@@H]1CCCN1C(=O)[C@H](CCCNC(=N)N)NC(=O)[C@@H]1CCCN1C(=O)[C@H](Cc1ccccc1)NC(=O)[C@@H]1CCCN1C(=O)[C@H](CC(C)C)NC(=O)[C@@H]1CCCN1C(=O)[C@H](CCCNC(=N)N)NC(=O)[C@@H]1CCCN1C(=O)[C@H](CCCNC(=N)N)NC(=O)[C@@H]1CCCN1C(=O)[C@H](CCCNC(=N)N)NC(=O)[C@@H]1CCCN1C(=O)[C@@H](N)CC(C)C)C(=O)N1CCC[C@H]1C(=O)N[C@@H](CCCNC(=N)N)C(=O)N1CCC[C@H]1C(=O)N[C@@H](CC(C)C)C(=O)N1CCC[C@H]1C(=O)N[C@@H](Cc1ccccc1)C(=O)N1CCC[C@H]1C(=O)O`, the MIC was > 42 µM (broth microdilution; NTUH K2044, Mueller Hinton broth; 24 h, 37 °C).
`CCCCCCCCCCCCCCCC(=O)Oc1ccc(/C=C/C(=O)CC(=O)/C=C/c2ccc(OC(=O)CCCCCCCCCCCCCCC)c(OC)c2)cc1OC` gave an MIC of 0.591 µM (microbial growth, broth dilution; 24 h).
With `CC[C@H](C)[C@H](NC(=O)[C@H](C)NC(=O)[C@H](C)NC(=O)[C@H](CC(N)=O)NC(=O)[C@H](C)NC(=O)[C@H](C)NC(=O)[C@H](C)NC(=O)[C@H](CCCNC(=N)N)NC(=O)[C@H](CC(C)C)NC(=O)[C@@H](NC(=O)[C@H](CCC(=O)O)NC(=O)[C@@H]1CCCN1C(=O)CNC(=O)[C@H](CCCCN)NC(=O)[C@H](CCC(=O)O)NC(=O)[C@H](CCCCN)NC(=O)[C@@H](NC(=O)[C@H](Cc1ccccc1)NC(=O)[C@H](CC(=O)O)NC(=O)[C@H](CCCCN)NC(=O)[C@H](C)NC(=O)[C@H](CCCCN)NC(=O)[C@H](CC(N)=O)NC(=O)[C@H](CC(C)C)NC(=O)[C@H](Cc1c[nH]c2ccccc12)NC(=O)[C@H](CC(=O)O)NC(=O)[C@H](CCCCN)NC(=O)[C@H](Cc1c[nH]c2ccccc12)NC(=O)CN)[C@@H](C)CC)[C@@H](C)CC)C(=O)N[C@@H](CC(N)=O)C(=O)O` the MIC was 5.9 to 11.8 µM (broth microdilution; ATCC 13883; 20 h, 37 °C).
With `CC(C)C[C@H](NC(=O)[C@H](CCCNC(=N)N)NC(=O)[C@@H]1CCCN1C(=O)[C@@H]1CCCN1C(=O)[C@H](CCCNC(=N)N)NC(=O)[C@@H]1CCCN1)C(=O)N1CCC[C@H]1C(=O)N[C@@H](CCCNC(=N)N)C(=O)N1CCC[C@H]1C(=O)N[C@@H](CCCNC(=N)N)C(=O)N1CCC[C@H]1C(=O)N[C@@H](CCCNC(=N)N)C(=O)N1CCC[C@H]1C(=O)N[C@@H](CC(C)C)C(=O)N1CCC[C@H]1C(=O)N[C@@H](Cc1ccccc1)C(=O)N1CCC[C@H]1C(=O)N[C@@H](CCCNC(=N)N)C(=O)N1CCC[C@H]1C(=O)NCC(=O)O` the MIC was 14 µM (broth microdilution; NTUH K2044, Mueller Hinton broth; 24 h, 37 °C).
With `CC[C@H](C)[C@H](NC(=O)CN)C(=O)NCC(=O)N[C@@H](C)C(=O)N[C@H](C(=O)N[C@@H](CC(C)C)C(=O)N[C@@H](CCCCN)C(=O)N[C@H](C(=O)N[C@@H](CC(C)C)C(=O)N[C@H](C(=O)N[C@H](C(=O)NCC(=O)N[C@@H](CC(C)C)C(=O)N1CCC[C@H]1C(=O)N[C@@H](C)C(=O)N[C@@H](CC(C)C)C(=O)N[C@H](C(=O)N[C@@H](CO)C(=O)N[C@@H](Cc1c[nH]c2ccccc12)C(=O)N[C@H](C(=O)N[C@@H](CCCCN)C(=O)N[C@@H](CCCNC(=N)N)C(=O)N[C@@H](CCCCN)C(=O)N[C@@H](CCCNC(=N)N)C(=O)N[C@@H](CCC(N)=O)C(=O)N[C@@H](CCC(N)=O)C(N)=O)[C@@H](C)CC)[C@@H](C)CC)[C@@H](C)O)[C@@H](C)O)C(C)C)C(C)C` the MIC was 26.6 ± 5.5 µg/mL (broth microdilution; ATCC 700603; 20 h, 37 °C).
With `CC[C@H](C)[C@H](NC(=O)[C@H](CC(=O)O)NC(=O)[C@H](Cc1ccccc1)NC(=O)[C@H](CC(C)C)NC(=O)CN)C(=O)N[C@H](C(=O)N[C@@H](CCCCN)C(=O)N[C@@H](CCCCN)C(=O)N[C@H](C(=O)N[C@H](C(=O)NCC(=O)N[C@@H](C)C(=O)N[C@@H](CC(C)C)C(=O)N[C@@H](CCCCN)C(N)=O)C(C)C)C(C)C)C(C)C` the MIC was > 22 µM (ATCC 700603, CAMHB; 18 h, 37 °C).
`CC[C@H](C)[C@H](NC(=O)[C@@H]1CCCN1C(=O)[C@H](CCCNC(=N)N)NC(=O)[C@@H]1CCCN1C(=O)CNC(=O)[C@@H]1CCCN1C(=O)[C@H](CCCNC(=N)N)NC(=O)[C@@H]1CCCN1C(=O)[C@H](Cc1ccccc1)NC(=O)[C@@H]1CCCN1C(=O)[C@H](CC(C)C)NC(=O)[C@@H]1CCCN1C(=O)[C@H](CCCNC(=N)N)NC(=O)[C@@H]1CCCN1C(=O)[C@H](CCCNC(=N)N)NC(=O)[C@@H]1CCCN1C(=O)[C@H](CCCNC(=N)N)NC(=O)[C@@H]1CCCN1C(=O)[C@H](CC(C)C)NC(=O)[C@H](CCCNC(=N)N)NC(=O)[C@@H]1CCCN1C(=O)[C@@H]1CCCN1C(=O)[C@H](CCCNC(=N)N)NC(=O)[C@@H]1CCCN1)C(=O)N1CCC[C@H]1C(=O)N[C@@H](CCCNC(=N)N)C(=O)N1CCC[C@H]1C(=O)N[C@@H](CC(C)C)C(=O)N1CCC[C@H]1C(=O)N[C@@H](Cc1ccccc1)C(=O)N1CCC[C@H]1C(=O)O` has an MIC of 4 µM (broth microdilution; NTUH K2044, Mueller Hinton broth; 24 h, 37 °C).

Some of these lines once more:
With `CC[C@H](C)[C@H](NC(=O)[C@H](C)NC(=O)[C@H](C)NC(=O)[C@H](CC(N)=O)NC(=O)[C@H](C)NC(=O)[C@H](C)NC(=O)[C@H](C)NC(=O)[C@H](CCCNC(=N)N)NC(=O)[C@H](CC(C)C)NC(=O)[C@@H](NC(=O)[C@H](CCC(=O)O)NC(=O)[C@@H]1CCCN1C(=O)CNC(=O)[C@H](CCCCN)NC(=O)[C@H](CCC(=O)O)NC(=O)[C@H](CCCCN)NC(=O)[C@@H](NC(=O)[C@H](Cc1ccccc1)NC(=O)[C@H](CC(=O)O)NC(=O)[C@H](CCCCN)NC(=O)[C@H](C)NC(=O)[C@H](CCCCN)NC(=O)[C@H](CC(N)=O)NC(=O)[C@H](CC(C)C)NC(=O)[C@H](Cc1c[nH]c2ccccc12)NC(=O)[C@H](CC(=O)O)NC(=O)[C@H](CCCCN)NC(=O)[C@H](Cc1c[nH]c2ccccc12)NC(=O)CN)[C@@H](C)CC)[C@@H](C)CC)C(=O)N[C@@H](CC(N)=O)C(=O)O` the MIC was 5.9 to 11.8 µM (broth microdilution; ATCC 13883; 20 h, 37 °C).
